Measured values from different studies.
A part holds a random share of what one study measured. Values joined by “and” are separate records of one study, mostly repeats; a detail may differ.
UniProt O15111, sequence (whole entry, looked up): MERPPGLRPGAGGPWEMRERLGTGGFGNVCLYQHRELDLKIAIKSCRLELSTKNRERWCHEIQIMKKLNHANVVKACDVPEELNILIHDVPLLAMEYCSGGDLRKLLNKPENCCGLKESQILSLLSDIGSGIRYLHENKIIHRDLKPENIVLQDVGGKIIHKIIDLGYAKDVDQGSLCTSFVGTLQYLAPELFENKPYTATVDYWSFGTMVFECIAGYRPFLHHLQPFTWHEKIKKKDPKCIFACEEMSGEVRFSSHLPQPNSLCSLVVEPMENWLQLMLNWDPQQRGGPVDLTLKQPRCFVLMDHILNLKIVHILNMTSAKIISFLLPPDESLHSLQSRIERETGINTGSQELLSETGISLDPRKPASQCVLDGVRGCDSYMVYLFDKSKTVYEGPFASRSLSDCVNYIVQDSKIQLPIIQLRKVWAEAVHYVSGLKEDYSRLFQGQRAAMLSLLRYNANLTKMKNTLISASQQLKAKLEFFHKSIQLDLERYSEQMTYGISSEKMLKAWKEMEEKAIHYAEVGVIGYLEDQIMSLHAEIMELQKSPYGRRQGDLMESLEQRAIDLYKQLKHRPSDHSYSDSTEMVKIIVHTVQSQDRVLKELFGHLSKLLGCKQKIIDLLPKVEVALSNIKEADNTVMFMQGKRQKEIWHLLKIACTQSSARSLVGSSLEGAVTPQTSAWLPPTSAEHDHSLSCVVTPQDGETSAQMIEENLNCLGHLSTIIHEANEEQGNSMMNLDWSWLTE
UniProt Q9NRP7, sequence (whole entry, looked up): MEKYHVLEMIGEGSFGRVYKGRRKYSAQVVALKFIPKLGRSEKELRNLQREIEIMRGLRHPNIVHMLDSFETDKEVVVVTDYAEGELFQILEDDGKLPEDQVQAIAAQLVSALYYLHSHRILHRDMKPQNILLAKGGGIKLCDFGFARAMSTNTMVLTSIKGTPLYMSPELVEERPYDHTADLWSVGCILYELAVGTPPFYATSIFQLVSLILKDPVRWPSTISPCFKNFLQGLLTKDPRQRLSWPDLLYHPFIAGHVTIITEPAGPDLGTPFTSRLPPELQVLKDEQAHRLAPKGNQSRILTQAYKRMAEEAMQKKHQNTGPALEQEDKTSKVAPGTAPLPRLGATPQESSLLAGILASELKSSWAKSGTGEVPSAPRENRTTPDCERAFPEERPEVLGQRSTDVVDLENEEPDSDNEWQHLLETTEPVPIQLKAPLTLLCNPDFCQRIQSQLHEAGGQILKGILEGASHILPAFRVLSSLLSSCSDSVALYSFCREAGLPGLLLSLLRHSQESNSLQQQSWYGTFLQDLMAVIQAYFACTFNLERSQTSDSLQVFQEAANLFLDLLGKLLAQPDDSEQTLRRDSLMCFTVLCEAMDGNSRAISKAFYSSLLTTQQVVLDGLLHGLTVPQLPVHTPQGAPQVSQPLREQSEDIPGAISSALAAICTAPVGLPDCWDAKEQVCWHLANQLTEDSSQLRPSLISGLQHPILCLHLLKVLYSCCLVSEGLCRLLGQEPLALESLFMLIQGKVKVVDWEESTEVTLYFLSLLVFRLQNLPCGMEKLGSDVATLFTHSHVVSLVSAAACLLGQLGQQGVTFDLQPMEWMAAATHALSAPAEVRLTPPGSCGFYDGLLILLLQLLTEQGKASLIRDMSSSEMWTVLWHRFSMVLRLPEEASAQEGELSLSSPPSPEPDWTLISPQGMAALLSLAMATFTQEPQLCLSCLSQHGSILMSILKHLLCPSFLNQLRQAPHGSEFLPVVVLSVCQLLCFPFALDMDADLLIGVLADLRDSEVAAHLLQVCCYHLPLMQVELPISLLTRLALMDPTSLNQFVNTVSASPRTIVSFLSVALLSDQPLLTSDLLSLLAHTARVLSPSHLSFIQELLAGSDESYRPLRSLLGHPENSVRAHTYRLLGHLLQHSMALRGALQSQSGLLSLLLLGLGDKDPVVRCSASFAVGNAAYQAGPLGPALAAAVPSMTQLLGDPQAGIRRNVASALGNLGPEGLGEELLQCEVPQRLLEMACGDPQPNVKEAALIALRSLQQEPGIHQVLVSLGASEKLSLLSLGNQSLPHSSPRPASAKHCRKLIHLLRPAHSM
UniProt P42681, sequence (whole entry, looked up): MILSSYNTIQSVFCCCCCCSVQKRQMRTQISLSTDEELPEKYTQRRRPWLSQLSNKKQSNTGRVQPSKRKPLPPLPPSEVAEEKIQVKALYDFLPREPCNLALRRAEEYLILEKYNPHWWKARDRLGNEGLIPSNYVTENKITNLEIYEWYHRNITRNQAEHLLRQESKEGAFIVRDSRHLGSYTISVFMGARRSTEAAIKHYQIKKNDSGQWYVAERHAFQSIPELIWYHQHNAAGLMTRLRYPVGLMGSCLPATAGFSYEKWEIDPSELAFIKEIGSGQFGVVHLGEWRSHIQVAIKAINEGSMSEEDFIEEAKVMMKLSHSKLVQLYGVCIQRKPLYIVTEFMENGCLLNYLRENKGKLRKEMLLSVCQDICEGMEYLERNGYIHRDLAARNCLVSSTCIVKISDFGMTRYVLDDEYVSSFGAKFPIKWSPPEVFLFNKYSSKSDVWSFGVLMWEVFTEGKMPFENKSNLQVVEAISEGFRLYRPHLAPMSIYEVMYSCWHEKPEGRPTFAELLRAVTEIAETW
UniProt Q00532, sequence (whole entry, looked up): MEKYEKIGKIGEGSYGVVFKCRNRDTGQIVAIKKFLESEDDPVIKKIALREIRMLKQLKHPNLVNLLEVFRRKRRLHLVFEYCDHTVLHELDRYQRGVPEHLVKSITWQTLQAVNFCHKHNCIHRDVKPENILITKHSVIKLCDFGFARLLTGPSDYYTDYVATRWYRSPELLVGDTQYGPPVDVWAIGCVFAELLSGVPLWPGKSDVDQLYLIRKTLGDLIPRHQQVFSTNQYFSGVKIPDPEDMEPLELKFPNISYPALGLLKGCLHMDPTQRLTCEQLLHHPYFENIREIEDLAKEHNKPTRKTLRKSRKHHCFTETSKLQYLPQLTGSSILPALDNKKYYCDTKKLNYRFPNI
UniProt O95382, sequence (whole entry, looked up): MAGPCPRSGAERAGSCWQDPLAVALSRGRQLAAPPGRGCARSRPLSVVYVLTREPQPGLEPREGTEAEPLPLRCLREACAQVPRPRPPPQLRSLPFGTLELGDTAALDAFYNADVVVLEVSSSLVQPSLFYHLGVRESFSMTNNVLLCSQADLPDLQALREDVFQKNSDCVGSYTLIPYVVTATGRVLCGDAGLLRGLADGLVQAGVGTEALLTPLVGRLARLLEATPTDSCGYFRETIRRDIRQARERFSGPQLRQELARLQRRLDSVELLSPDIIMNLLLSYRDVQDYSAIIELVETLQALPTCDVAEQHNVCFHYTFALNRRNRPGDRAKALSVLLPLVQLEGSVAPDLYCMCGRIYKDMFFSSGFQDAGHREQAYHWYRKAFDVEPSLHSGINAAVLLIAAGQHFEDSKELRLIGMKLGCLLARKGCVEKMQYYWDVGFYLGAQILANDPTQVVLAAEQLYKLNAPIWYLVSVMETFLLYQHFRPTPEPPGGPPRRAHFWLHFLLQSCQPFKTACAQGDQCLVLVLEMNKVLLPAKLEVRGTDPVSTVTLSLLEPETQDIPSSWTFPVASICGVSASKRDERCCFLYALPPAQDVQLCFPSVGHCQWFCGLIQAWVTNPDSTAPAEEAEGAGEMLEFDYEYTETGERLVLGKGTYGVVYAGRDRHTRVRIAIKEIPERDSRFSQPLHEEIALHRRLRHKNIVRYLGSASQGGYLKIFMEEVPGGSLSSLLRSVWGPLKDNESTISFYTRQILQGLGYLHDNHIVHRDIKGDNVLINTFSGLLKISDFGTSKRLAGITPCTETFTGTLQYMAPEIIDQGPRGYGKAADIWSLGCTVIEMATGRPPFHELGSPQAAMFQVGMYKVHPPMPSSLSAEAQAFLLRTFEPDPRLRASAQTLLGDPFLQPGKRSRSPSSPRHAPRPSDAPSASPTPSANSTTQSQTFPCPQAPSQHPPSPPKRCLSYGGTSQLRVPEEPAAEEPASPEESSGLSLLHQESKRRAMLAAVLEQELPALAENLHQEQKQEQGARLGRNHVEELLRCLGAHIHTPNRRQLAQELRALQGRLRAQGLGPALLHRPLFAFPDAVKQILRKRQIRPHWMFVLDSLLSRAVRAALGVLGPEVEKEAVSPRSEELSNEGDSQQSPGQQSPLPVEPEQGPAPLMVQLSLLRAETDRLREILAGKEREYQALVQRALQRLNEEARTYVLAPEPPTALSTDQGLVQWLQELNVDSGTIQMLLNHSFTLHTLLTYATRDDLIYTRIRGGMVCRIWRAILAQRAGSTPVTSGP
UniProt Q9UQB9, sequence (whole entry, looked up): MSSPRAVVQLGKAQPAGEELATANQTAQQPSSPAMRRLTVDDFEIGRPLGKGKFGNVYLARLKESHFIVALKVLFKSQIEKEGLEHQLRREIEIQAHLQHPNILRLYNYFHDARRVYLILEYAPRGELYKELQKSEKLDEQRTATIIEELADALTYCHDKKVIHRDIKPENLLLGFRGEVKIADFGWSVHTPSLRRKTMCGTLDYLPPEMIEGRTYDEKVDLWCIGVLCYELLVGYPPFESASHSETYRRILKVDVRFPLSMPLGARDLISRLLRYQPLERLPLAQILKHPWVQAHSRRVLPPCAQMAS
UniProt Q9HBH9, sequence (whole entry, looked up): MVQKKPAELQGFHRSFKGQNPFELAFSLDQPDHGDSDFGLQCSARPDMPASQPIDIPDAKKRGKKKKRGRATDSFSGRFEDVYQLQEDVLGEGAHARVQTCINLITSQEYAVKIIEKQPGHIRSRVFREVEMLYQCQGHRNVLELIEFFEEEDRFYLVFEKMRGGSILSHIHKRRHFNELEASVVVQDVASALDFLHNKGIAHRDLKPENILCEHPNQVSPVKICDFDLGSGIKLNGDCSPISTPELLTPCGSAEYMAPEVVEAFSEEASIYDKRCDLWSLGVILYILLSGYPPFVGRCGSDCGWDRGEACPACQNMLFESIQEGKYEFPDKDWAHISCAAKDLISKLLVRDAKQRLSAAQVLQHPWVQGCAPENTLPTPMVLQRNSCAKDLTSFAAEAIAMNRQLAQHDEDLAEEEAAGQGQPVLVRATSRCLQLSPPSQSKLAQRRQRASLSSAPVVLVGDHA

Series 1
Compound: CC(C)(C(=O)O)[C@H](NC(=O)Cc1cccc(I)c1)c1ccc2oc(=O)[nH]c2c1
Technique: Incucyte 3D growth
Tested at: 30 µM
Reading: higher = more growth
| cell line | setting | spheroid area |
| --- | --- | --- |
| NCI-H1437 | 168 h | 3.53e+07 a.u. and 4.83e+07 a.u. and 3.51e+07 a.u. and 5.04e+07 a.u. and 3.07e+07 a.u. and 4.01e+07 a.u. |
| MEL-JUSO | 0 h | 2.15e+07 a.u. and 2.13e+07 a.u. and 1.62e+07 a.u. and 2.17e+07 a.u. and 1.68e+07 a.u. |
| MEL-JUSO | 294.52 h | 2.56e+07 a.u. and 2.39e+07 a.u. and 2.61e+07 a.u. and 2.18e+07 a.u. and 4.05e+07 a.u. and 2.27e+07 a.u. |
| A375 | 222 h | 1.27e+08 a.u. and 1.53e+08 a.u. and 1.13e+08 a.u. and 1.29e+08 a.u. and 1.26e+08 a.u. |
| IPC-298 | 84 h | 2.97e+07 a.u. and 2.8e+07 a.u. and 2.61e+07 a.u. and 3.37e+07 a.u. and 2.39e+07 a.u. and 2.63e+07 a.u. |
| A375 | 180 h | 1.12e+08 a.u. and 9.4e+07 a.u. and 1.07e+08 a.u. and 1.28e+08 a.u. and 1.1e+08 a.u. and 1.08e+08 a.u. |
| MEL-JUSO | 390.52 h | 4.05e+07 a.u. and 3.66e+07 a.u. and 4.25e+07 a.u. and 4.27e+07 a.u. and 3.08e+07 a.u. and 6.83e+07 a.u. |
| MEL-JUSO | 438.52 h | 2.48e+07 a.u. and 7.45e+07 a.u. and 3.06e+07 a.u. and 3.11e+07 a.u. and 2.92e+07 a.u. and 5.17e+07 a.u. |

Series 2
Organism: Sarcocystis neurona
Observed: parasite growth
Tested at: 10 µM
Time: 96 h
Relative to: untreated
| SMILES | log2 fold change |
| --- | --- |
| CC(CCc1ccccc1)NCC(O)c1ccc(O)c(C(N)=O)c1 (stereo not drawn) | 0.38 |
| COc1cc(C)c(/C=C/C(C)=C/C=C/C(C)=C/C(=O)O)c(C)c1C | 0.73 |
| CN(C)CCCN1c2ccccc2Sc2ccc(Cl)cc21 | -0.48 |
| O=C1[C@H](CC[C@H](O)c2ccc(F)cc2)[C@@H](c2ccc(O)cc2)N1c1ccc(F)cc1 | -0.42 |
| N[C@@H](C(=O)N[C@@H]1C(=O)N2C(C(=O)O)=C(Cl)CS[C@H]12)c1ccccc1 | 0.23 |
| O=C1NC(=O)C(c2ccccc2)(c2ccccc2)N1 | -0.12 |
| CCCOc1ccc(C(=O)OCCN(CC)CC)cc1N | 0.35 |
| CCCCc1oc2ccccc2c1C(=O)c1cc(I)c(OCCN(CC)CC)c(I)c1 | -0.11 |

Series 3
SMILES: Cc1nc(Cc2cccc(C(F)(F)F)c2)sc1-c1ccc(C(N)=O)nc1
Tested at: 1 µM
| target | test | remaining binding [%] |
| --- | --- | --- |
| CSNK1A1L (Homo sapiens, UniProt Q8N752) | cell-free assay, competition with immobilised ligand | 100 |
| EPHA7 (Homo sapiens, UniProt Q15375) | cell-free assay, competition with immobilised ligand | 100 |
| MAP2K4 (Homo sapiens, UniProt P45985) | cell-free assay, competition with immobilised ligand | 100 |
| PIP4K2C (Homo sapiens, UniProt Q8TBX8) | binding, competition with immobilised ligand | 0.3 |
| Ribosomal protein S6 kinase alpha-2, N-terminal kinase domain (RPS6KA2, Homo sapiens, UniProt Q15349) | cell-free assay, competition with immobilised ligand | 95 |
| MET (Homo sapiens, UniProt P08581, Y1235D) | cell-free assay, competition with immobilised ligand | 91 |
| MAP3K1 (Homo sapiens, UniProt Q13233) | cell-free assay, competition with immobilised ligand | 100 |
| MKNK2 (Homo sapiens, UniProt Q9HBH9) | cell-free assay, competition with immobilised ligand | 100 |
| Ribosomal protein S6 kinase alpha-6, C-terminal kinase domain (RPS6KA6, Homo sapiens, UniProt Q9UK32) | cell-free assay, competition with immobilised ligand | 100 |
| DMPK (Homo sapiens, UniProt Q09013) | cell-free assay, competition with immobilised ligand | 100 |
| STK36 (Homo sapiens, UniProt Q9NRP7) | cell-free assay, competition with immobilised ligand | 100 |
| LIM domain kinase 2 (LIMK2, Homo sapiens, UniProt P53671) | cell-free assay, competition with immobilised ligand | 98 |
| ERN1 (Homo sapiens, UniProt O75460) | cell-free assay, competition with immobilised ligand | 100 |
| EGFR (Homo sapiens, UniProt P00533, del747-750/T751S) | cell-free assay, competition with immobilised ligand | 100 |
| Aurora kinase C (AURKC, Homo sapiens, UniProt Q9UQB9) | cell-free assay, competition with immobilised ligand | 100 |
| EGFR (Homo sapiens, UniProt P00533, T790M) | cell-free assay, competition with immobilised ligand | 98 |
| CDKL1 (Homo sapiens, UniProt Q00532) | binding, competition with immobilised ligand | 85 |
| CHUK (Homo sapiens, UniProt O15111) | cell-free assay, competition with immobilised ligand | 100 |
| PLK1 (Homo sapiens, UniProt P53350) | cell-free assay, competition with immobilised ligand | 100 |
| MAP3K6 (Homo sapiens, UniProt O95382) | cell-free assay, competition with immobilised ligand | 99 |
| SIK2 (Homo sapiens, UniProt Q9H0K1) | cell-free assay, competition with immobilised ligand | 90 |
| AAK1 (Homo sapiens, UniProt Q2M2I8) | binding | 96 |
| CDK13 (Homo sapiens, UniProt Q14004) | cell-free assay, competition with immobilised ligand | 100 |
| TXK (Homo sapiens, UniProt P42681) | binding, competition with immobilised ligand | 70 |
| EGFR (Homo sapiens, UniProt P00533, L858R) | cell-free assay, competition with immobilised ligand | 100 |

Series 4
Cell line: A-375
Tested at: 100 µM
Time: 18 h
| Compound | viability |
| --- | --- |
| CCOc1nc2cccc(C(=O)O)c2n1Cc1ccc(-c2ccccc2-c2noc(=O)[nH]2)cc1 | 96.1% |
| C[C@H]1[C@H](C)CC[C@]2(C(=O)O)CC[C@]3(C)C(=CC[C@@H]4[C@@]5(C)C[C@@H](O)[C@H](O)[C@@](C)(CO)[C@@H]5CC[C@]43C)[C@H]12 | 8.22% |
| Cc1cccc(C)c1OCC(=O)N[C@@H](Cc1ccccc1)[C@@H](O)C[C@H](Cc1ccccc1)NC(=O)[C@H](C(C)C)N1CCCNC1=O | 26.6% |
| CCCC(=O)OCOC(=O)C1=C(C)NC(C)=C(C(=O)OC)C1c1cccc(Cl)c1Cl (stereo not drawn) | 22.4% |
| Cc1ccc(C)c(OCCCC(C)(C)C(=O)O)c1 | 108% |
| CC(=O)Nc1ccc(O)cc1 | 107% |
| Cc1c(O)c(=O)n(-c2ccccc2)n1C | 88.9% |

Series 5
Host: human
Matrix: microsomes or S9
Tested at: 2 µM
Time: 0.5 h
| Structure (SMILES) | remaining compound [%] |
| --- | --- |
| O=c1c2ncn(C3CCS(=O)(=O)C3)c2ncn1Cc1ccc(F)cc1 (stereo not drawn) | 88.8 |
| O=C(OCc1ccccc1)N1CCC2(CC1)CNc1ccccc12 | 9.66 |
| Cc1ccn(-c2ccc(NS(=O)(=O)c3ccc(C4CNC(=O)C4)cc3)cc2)n1 (stereo not drawn) | 50 |
| c1ccc(Oc2cccc(CNc3ccc4nnnn4n3)c2)cc1 | 64.2 |
| Cc1ccc2[nH]cc(CCNC(=O)Nc3ccc(Cl)c(Cl)c3)c2c1 | 41.9 |
| CCOc1ccc(Nc2ncc(F)c(Nc3ccc(OCC)cc3)n2)cc1 | 32.4 |

Further values, each from its own experiment
| SMILES | tested on | test system | setting | scale | endpoint | value |
| --- | --- | --- | --- | --- | --- | --- |
| CC(C)n1cnc(-c2ccc(F)cc2)c1-c1ncc(C(=O)Nc2ccc(N3CCN(C)CC3)cc2)[nH]1 | – | IPF patients | 30 mg once daily, adverse event | – | Hypoalbuminaemia incidence | 0% |
| CCC[C@@H]1NC(=O)CSC[C@@H](C(=O)OCC)N(C)C(=O)[C@H](CC(C)C)NC(=O)[C@@H](C)N(C)C(=O)[C@H](CC(C)C)NC(=O)[C@H](C)N(C)C(=O)[C@H]2CCCN2C(=O)[C@@H](CC(C)C)NC(=O)CN(CCC)C1=O | – | hydrocarbon/water | – | – | logD | 0.697 |
| c1ccc2c(-c3nn4c(-c5ccncc5)nnc4s3)c[nH]c2c1 | α-galactosidase (human, wild type) | healthy dermal fibroblasts | 0.5 µM, unit not given | relative to: DMSO | remaining activity | 1.58 and 1.45 and 1.26 and 1.32 and 1.61 and 1.46 |

Some of these lines once more (series 3):
| target | test | remaining binding [%] |
| --- | --- | --- |
| LIM domain kinase 2 (LIMK2, Homo sapiens, UniProt P53671) | cell-free assay, competition with immobilised ligand | 98 |
| ERN1 (Homo sapiens, UniProt O75460) | cell-free assay, competition with immobilised ligand | 100 |
| EGFR (Homo sapiens, UniProt P00533, del747-750/T751S) | cell-free assay, competition with immobilised ligand | 100 |
| Aurora kinase C (AURKC, Homo sapiens, UniProt Q9UQB9) | cell-free assay, competition with immobilised ligand | 100 |
| EGFR (Homo sapiens, UniProt P00533, T790M) | cell-free assay, competition with immobilised ligand | 98 |
